Published values pooled from the literature.
Every numbered part comes from another study and shows a few of its results, in no order. Changes are numbered by the printed parent chain.

Set 1
Target: PABPC1L2, full length, GST fusion (mouse, UniProt A0ABA7IW68)
Technique: RNAcompete
Molecule type: RNA
Matrix: in vitro
Tested at: 20 nM
Notes: 7-mer, probes averaged, single round
Reference: mean of 7-mers
Reading: higher = stronger binding
Target sequence (chain): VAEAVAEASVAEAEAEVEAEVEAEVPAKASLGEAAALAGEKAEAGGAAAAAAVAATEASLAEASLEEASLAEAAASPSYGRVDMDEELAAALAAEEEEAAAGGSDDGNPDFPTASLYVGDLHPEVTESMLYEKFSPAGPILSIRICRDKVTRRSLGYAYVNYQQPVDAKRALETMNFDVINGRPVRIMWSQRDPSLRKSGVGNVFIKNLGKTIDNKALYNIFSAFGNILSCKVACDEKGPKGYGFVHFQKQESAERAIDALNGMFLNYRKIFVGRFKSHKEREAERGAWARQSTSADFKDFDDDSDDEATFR
Sequence	7-mer Z-score
CAGCCGC	-0.391
AUCCUGC	-0.425
UCACCGG	-0.228
ACUGUAA	0.0605
GCUAAGC	-0.307
CUCGUUC	-0.545
UAAUUCA	-0.144
ACCACUG	-0.199

Set 2
Target: HLA class I histocompatibility antigen, A alpha chain, allele A*80:01 (Homo sapiens, UniProt P04439)
Observed: peptide-MHC binding
Molecule type: peptide
Tested at: concentration not given
Molecule	binding
TLKPGTMSV	inactive
RTLGVFRYK	inactive
DETFVHSGF	inactive
EGFDPRALI	inactive

Set 3
Target: Eukaryotic initiation factor 4A-I (EIF4A1, Homo sapiens, UniProt P60842, residues 1-406, full length assumed)
Sequence of UniProt P60842 (whole entry, looked up): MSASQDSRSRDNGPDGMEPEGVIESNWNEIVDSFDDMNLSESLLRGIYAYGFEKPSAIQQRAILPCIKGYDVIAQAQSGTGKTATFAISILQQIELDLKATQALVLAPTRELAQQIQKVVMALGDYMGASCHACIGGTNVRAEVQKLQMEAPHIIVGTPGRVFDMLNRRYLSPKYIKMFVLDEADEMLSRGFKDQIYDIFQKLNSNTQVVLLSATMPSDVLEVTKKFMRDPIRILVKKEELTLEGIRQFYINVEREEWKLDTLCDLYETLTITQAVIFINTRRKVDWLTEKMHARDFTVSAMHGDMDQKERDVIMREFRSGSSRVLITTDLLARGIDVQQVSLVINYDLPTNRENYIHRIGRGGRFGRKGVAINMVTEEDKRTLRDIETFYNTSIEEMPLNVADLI
Technique: RNA Bind-n-Seq
Molecule type: RNA
Matrix: in vitro
Tested at: 90 pmol
Notes: 4-mer, random 30-nt RNA, single round
Added: 3 µM iPr-DMDA-PatA, 2 mM ADP, 2 mM phosphate
Reference: input library
Reading: higher = stronger binding
Sequence	4-mer enrichment
UGAG	1.06 fold
CAAU	1.14 fold
CGAC	1.09 fold
CGCG	0.71 fold
UGUU	0.973 fold
CUUU	0.979 fold
UGGU	0.85 fold
CCAA	1.14 fold

Set 4
Target: Ras GTPase-activating protein-binding protein 1, full length (G3BP1, Homo sapiens, UniProt Q13283)
Sequence of UniProt Q13283 (whole entry, looked up): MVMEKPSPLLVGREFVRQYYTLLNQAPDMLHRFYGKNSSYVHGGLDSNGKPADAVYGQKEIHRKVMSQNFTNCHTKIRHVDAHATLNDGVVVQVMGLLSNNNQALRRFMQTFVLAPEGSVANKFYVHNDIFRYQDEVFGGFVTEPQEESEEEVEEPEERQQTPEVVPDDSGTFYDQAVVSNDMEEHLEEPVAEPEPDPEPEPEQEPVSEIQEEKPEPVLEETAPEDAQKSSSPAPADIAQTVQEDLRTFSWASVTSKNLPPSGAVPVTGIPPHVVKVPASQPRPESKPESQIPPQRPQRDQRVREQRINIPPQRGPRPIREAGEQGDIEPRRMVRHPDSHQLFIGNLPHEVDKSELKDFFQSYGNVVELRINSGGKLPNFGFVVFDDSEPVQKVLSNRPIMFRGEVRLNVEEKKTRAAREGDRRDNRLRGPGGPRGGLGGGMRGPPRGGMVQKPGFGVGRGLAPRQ
Technique: RNA Bind-n-Seq
Molecule type: RNA
Matrix: in vitro
Tested at: 200 nM
Notes: whole 134-nt RNA, ends assumed
Added: 150 mM KCl
Reference: input library
Reading: higher = stronger binding
Shared flanks, not repeated: GGGAGUUCUACAGUCCGACGAUC … UGGAAUUCUCGGGUGUCAAGG
Sequence	log2 enrichment
GCAGGAAGUAAAAACAAAUGGAAAUGCUUCGGAUAGUGGCAGGGGUGGGGGUUGCUAAGGAAAGGGUGGGAUGGGGGUGGGUAAAGAGUU	0.29
UGGCCCUGGUGGCAUGCGGGGAGGAAGAGGUGGCCUCAUGGCUCGUGGUGGUCCCGGUGGAAUGUUCAGAGGUGGCCGUGGUGGAGACAG	0.145
CAAGUCCUGUGCUACACAUCGUAUGUACCGAAUCGGCCCGGGCCCGGGGCCCGGGGAAAGUAUUAUGUUACGCCGUUCGGAUCUGCACUU	-1.21
UAACUUUAGAGGAGGAUCUGAUGGAUAUGGCAGUGGACGUGGAUUUGGGGAUGGCUAGAAUGGGUAUGGAGGAGGACCUGGAGGUGGCAA	0.392
UUGUGAGCUGCAAGCUAGGCUGCAGGCCCAGGAAGAACAGCAUCAGGAAGUCCAGAAGGCAAAAGAAGCAGACAUAGAGAAGCUGAACCA	-1.1
ACCAUGCAGGUGGGCAUCUUUGGGAAGUGGGGCAAGGGGGGGAUAAGGAGGGGGGUAACACUUUGGGAACAGGUGGUCCCAGGUCGUUUC	0.756
AAGUCCUGUGCUACACAUCGUAUGUACCGAAUCGGGGUUUUGGUUUUGGUUUUGGGAAAGUAUUAUGUUACGCCGUUCGGAUCUGCACUU	-1.01
UUCAGUUAUUCAAGCGGAGAAAUGUUGCUACAGCAGAAGAAGAAACAGAAGAAGAAGUUAUGUCAGAUGGAGGCUUUCAUGAGGCUCAGA	-1.76

Set 5
Target: CCND1, cyclin fold, Cln2 fusion (human)
Technique: yeast growth competition, sequencing
Matrix: yeast
Notes: strong parent motif
Reference: not given
Reading: higher = stronger binding
Starting sequence: viral docking peptide; KGVKRKLFAEDSS; partner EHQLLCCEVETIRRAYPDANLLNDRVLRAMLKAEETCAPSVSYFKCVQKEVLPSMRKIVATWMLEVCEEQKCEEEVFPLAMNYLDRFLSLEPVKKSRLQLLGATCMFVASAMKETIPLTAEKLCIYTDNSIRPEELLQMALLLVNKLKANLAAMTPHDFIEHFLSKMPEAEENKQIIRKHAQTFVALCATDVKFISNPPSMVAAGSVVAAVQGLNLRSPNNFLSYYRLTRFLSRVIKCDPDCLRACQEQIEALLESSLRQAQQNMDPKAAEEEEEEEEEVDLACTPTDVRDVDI
Substitution	normalised enrichment score
KGDKRKLFAEDSS [V3D]	-0.189
KGVKKKLLAEDSS [R5K F8L]	0.186
KGVKRKLFAEYSS [D11Y]	0.598
KGVKMKLFAEDSS [R5M]	0.0151
KGVKRKFFAEDSS [L7F]	0.328
KGVKRKLFAEDCS [S12C]	1.65
KGVKGKLFAEDSS [R5G]	-0.459
KGVKDKLFAEDSS [R5D]	0.0537
KGVKRKLGAEDSS [F8G]	0.219
KAVKRKLFAEDSS [G2A]	1.16
KGVKCKLFAEDSS [R5C]	0.58
KDVKRKLFAEDSS [G2D]	1.62
KGVKRKLFYEDSS [A9Y]	0.972
KGVKRKWFAEDSS [L7W]	-0.498
KGVKAKLFAEDSS [R5A]	0.103
KGVKRKLFAQDSS [E10Q]	0.338
KGVKRKLFAEDRS [S12R]	0.867
KGVKRKLFAEDQS [S12Q]	0.788
KGVKRKLFAEDPS [S12P]	1.78
KGLKRKLFAEDSS [V3L]	0.371
KGVKRKLFAEDIS [S12I]	1.52
KGVKRKHFAEDSS [L7H]	-0.0523
KGVKRKLQAEDSS [F8Q]	0.136
KGVKRKLFAEPSS [D11P]	0.649
KGVKRMLFAEDSS [K6M]	0.824

Other studies, line by line
Technique: cross-linking MS
Substance	partner	test system	conditions	quantity	result
NOP9 (Homo sapiens, UniProt Q86U38)	RBM19 (Homo sapiens, UniProt Q9Y4C8)	cell fractions	added: DSSO	cross-linked residues	K611 to K481
MIX23 (Homo sapiens, UniProt Q4VC31)	SMIM12 (Homo sapiens, UniProt Q96EX1)	–	hits only	interaction screen	cross-linked
PTPRB (Homo sapiens, UniProt P23467)	RAB13 (Homo sapiens, UniProt P51153)	cell fractions	added: DSSO	cross-linked residues	S305 to K55
H3-4 (Homo sapiens, UniProt Q16695)	H2AC18 (Homo sapiens, UniProt Q6FI13)	–	hits only	interaction screen	cross-linked

Repeated from above (set 5):
Substitution	normalised enrichment score
KGVKRKLQAEDSS [F8Q]	0.136
KGVKRKLFAEPSS [D11P]	0.649
KGVKRMLFAEDSS [K6M]	0.824
